Published values of several laboratories.
Numbered parts are unrelated; each lists some results of a single study.

Series 1
Target: Centromere-binding protein 1, full length, N-terminal tag (CBF1, Saccharomyces cerevisiae, UniProt P17106, residues 1-351)
UniProt P17106, sequence (whole entry, looked up): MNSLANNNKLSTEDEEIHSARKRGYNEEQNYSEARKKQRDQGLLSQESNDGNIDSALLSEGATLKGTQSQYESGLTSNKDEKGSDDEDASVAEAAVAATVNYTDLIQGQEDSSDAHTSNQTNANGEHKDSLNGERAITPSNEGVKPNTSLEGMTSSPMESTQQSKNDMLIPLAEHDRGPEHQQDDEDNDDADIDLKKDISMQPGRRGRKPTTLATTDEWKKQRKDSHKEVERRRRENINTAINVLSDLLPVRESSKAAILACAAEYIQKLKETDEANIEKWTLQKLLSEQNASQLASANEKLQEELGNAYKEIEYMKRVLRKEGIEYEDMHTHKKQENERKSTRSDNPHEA
Method: protein-binding microarray
Form: double-stranded DNA, one strand shown
Medium: in vitro
Tested at: 0.8 µM
Notes: whole 60-bp probe, no competitor
Reading: higher = stronger binding
Strand	fluorescence intensity [a.u.]
CTACAGAGCAAATATCACGTGCACAAAGAACTATTCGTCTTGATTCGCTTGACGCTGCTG	11800
CTATTTTTCGCATTGTGCACGGAAGGCTTCACCTTCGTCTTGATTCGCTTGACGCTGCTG	515
CTACTTTACCTAAATCATGTGGCCTATCTTCAGTTCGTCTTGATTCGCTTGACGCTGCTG	1160
GAAATGTACTTCTATTACAGCTGATTAAAAACATAGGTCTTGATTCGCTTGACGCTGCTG	625
GAAGCCGTACTTTTACACGTGACCGTAGAGGCTTAGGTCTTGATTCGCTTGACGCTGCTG	17800
CCTAACTACTATATTCACGGGAAATAGCTTCGTACAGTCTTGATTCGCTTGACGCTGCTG	507
GAATATTGGTTGGCTGATGTTAGTAATTACTACTAGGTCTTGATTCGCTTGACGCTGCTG	513
GAATTCTATATACATGATGTATCGGAAGCTGTATAGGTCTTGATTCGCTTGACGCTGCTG	543
CTAATTAGATTCCACCTGACTAATTGCATTACATTCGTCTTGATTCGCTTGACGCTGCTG	1530
GAAAATTTTGATTACCATCAGCAAATGGATTTTTAGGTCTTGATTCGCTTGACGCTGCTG	530
GAAATAAAAGACCCTCACCTGTGTCACTAAATGTAGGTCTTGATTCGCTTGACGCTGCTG	553
GAAGACAAAGCTGCTGTGGTGGTGTTTTGTTAATAGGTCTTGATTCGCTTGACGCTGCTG	521
CCTAACTACTATATCTCCGTGCAATAGCTTCGTACAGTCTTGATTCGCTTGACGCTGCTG	508
CCTAACTACTATAGTGTGGTGATATAGCTTCGTACAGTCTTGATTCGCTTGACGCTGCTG	506
CTATTCCCTTAATATGTCATGAGAATAAAATATTTCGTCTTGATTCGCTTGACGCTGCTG	655
CCTAACTACTATAAGAAGGTGACATAGCTTCGTACAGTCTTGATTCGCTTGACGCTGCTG	516
GAATGACAAGAACATCTGGTGAAGCAGGCTACCTAGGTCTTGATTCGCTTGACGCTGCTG	486
CTAACCAAAATAGACATCAGCTTTATCATATGTTTCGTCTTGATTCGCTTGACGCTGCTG	541
GAAGATAGTTTTTTTATCGTGATGAAGTGTTGGTAGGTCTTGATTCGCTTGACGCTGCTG	574
CCTAACTACTATAGTCACGCATAATAGCTTCGTACAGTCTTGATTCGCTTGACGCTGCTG	650
GAAGTTTATTCATGTCACGTGACTATATTTCCATAGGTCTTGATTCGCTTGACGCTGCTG	54900
GAAGTATTGAATGTTTTCGTGATGCTTTATTGATAGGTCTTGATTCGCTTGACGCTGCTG	542
CTAAGCTTCAATAAATGCGTGACTGGCTATAGTTTCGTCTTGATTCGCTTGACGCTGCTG	844
CTACCAACCATATTACAAGTCACAAATTGGTAATTCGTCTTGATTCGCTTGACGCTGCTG	564
GAATGAGGACGAAGTGGTGACACCCGCTGAGGATAGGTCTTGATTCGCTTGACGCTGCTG	529

Series 2
Target: Histone acetyltransferase KAT6A, winged helix 1, GST fusion (KAT6A, Homo sapiens, UniProt Q92794, residues 1-85)
Method: protein binding microarray
Form: double-stranded DNA, one strand shown
Medium: in vitro
Tested at: not given
Notes: 8-mer, flanks averaged, mean of 2 arrays, mostly near background
Baseline: not given
Reading: higher = stronger binding
Target sequence (chain): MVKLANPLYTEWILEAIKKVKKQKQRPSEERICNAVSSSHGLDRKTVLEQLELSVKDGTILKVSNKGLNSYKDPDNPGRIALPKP
Strand	E-score
GATTGCAC	-0.0149
CATTGGCA	-0.272
CTACGGGA	0.316
GAGTCCTA	-0.137
CAGTTGCG	0.0486
AAAGGACC	0.0764
ATCTCAAA	-0.0729
GCTGTATA	-0.165
GTAACGAA	-0.0715
CTGATATA	-0.13
TAGACGAA	-0.0707
TTCATAAA	-0.0927
TCATTGCA	-0.236
TGAAGTAA	-0.155
TGCTTCAA	-0.187
GTGTGGCA	-0.173

Series 3
Target: RNA binding protein fox-1 homolog 2, RRM domain, GST-SBP tag (RBFOX2, Homo sapiens, UniProt O43251-10, residues 100-194)
Method: RNA Bind-n-Seq
Form: RNA
Medium: in vitro
Tested at: 365 nM
Notes: natural RNA segment, single round, ends assumed
Baseline: no-protein control
Reading: higher = stronger binding
Residues (chain): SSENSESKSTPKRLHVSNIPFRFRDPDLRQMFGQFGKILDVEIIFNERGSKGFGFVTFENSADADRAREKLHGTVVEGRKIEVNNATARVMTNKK
Strand	RBNS enrichment (R)
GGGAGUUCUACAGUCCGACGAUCGGAUGGCCUCUACGCUGUUCCAUCACAGUCUCCAACUAAGGCUUAUGGUAUUUCAUUAAACUGUUGCAUACCCAGUUAGCACAGUAGGUGGGGAGUCUGCUUCAUUUCUAUGGAAUUCUCGGGUGCCAA	0.353
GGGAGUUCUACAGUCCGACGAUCUUGGGGACAAGGCAGGUGUAGGGCAGGUCAGGCCGUUGAACAUCUUCCACUCAAAUCUGCUCAGGUUUGUUAUGCAGCGAUUGUGGCUGUCCGCUGUAUCUCCUCUGUGGUGGAAUUCUCGGGUGCCAA	0.933
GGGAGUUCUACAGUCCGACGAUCUGAUCAUUCCGAGUGUUGCUGCAAGAUUACAGUGGACGUGAUCUUUUAGCAUGUGCUUUUAUAAAAAGUGGUAGCUACAGAUGAUAUAGCAAUCUACCUUAUAUAGAGCCUGGAAUUCUCGGGUGCCAA	0.596
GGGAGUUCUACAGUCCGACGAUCAAUCCAGAUGUUUCGUUUCCAGGUGCAGCAGCGCUGCCUUGUGCUUUCCUGUGACUUUAAGAGCAUCUGAUGUUCUGUUCUCUUCUCCCACUACGCAACCCACUGCCCUGUGGAAUUCUCGGGUGCCAA	2.48
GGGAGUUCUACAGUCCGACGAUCAGCCCUUGGUACUCCAGAUGUGGUUCCAGGCUCCCUUGUGGGAGCUGGACCGGUCUGGGUUUAAUCUCCCACAAUAAAGAUAAACCCCACGGACCUCACUGCUACUGCUGUGGAAUUCUCGGGUGCCAA	0.224
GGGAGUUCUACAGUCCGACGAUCGUAACUAAGGGAAUUUGUUUCAGUCUGGUUCUCCACUUACUAUACUGUGUUUUCAAGGUAAAUGGUCACUCUACAUUUAUAAACACAGGUCUGAUUGUACUUGAGGUAUAUGGAAUUCUCGGGUGCCAA	0.442
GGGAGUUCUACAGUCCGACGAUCUGGGAGUAUACGGAAACAAAAAUGAUCCUCAGUGCAAAAUGUCUUGUGUAUUUCUCUGUGAAUCCAUGGGUCUGGCUAGAGGGCCCAAAGCUUGUAAAUAUGGGGAUAGUUGGAAUUCUCGGGUGCCAA	2.05
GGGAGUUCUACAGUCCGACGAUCAUAGCCGUGUGUAGUGUCGCCAGAGAAGGUGGAGUUUAAGAAUGGUCUCAGUGUUAUUAAUGAGAAAAAGUUCUGUCAUUCAGGAAAAAAAAGCAAAAAACGUGAGGUUGUGGAAUUCUCGGGUGCCAA	4.3
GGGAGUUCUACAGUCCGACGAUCACCUUUUGCUGCCCAUCCUGUUACUUUUGAGUUUCUUUCAUUGUGGUUGUUCUUGGGUUCUUUUGUCUUGUCAGAGCUCUUCUAUAACCUCGCUCUAAUGGCUUAACAGUUGGAAUUCUCGGGUGCCAA	4.4
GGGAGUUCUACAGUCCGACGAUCAGGGAAGCCUGGAGCCGCACCCGACUCAGCCACUCUGCGUCACAUUCGUCCUGUACCUAGGACCGGAGGAAAGACGUGACUGCUCUAACCGGACCUCUGACUACCGGUGGUGGAAUUCUCGGGUGCCAA	0.282
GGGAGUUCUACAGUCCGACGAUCAAGGACCCCAUGUGCUAGCCAGAAAUAUACUGUCUCUUGAAGGAAAGCAGGAGCUCAGACUCUUAGAGCCAGCUGUGGCUUCGGACCCAAGGCCUGACCUAGGCUGCUAUUGGAAUUCUCGGGUGCCAA	0.319
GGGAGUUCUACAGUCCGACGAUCGUUUGUAGUCAUGUUGUCAACAGAGGCAAAGUUAAGCUUGAUGAUGGUUAAAAUCGGUUUGAUAGCACCAUGGGACAUUUUUCUAACAAAAAUAAAUGCAUGAAGAGACAUGGAAUUCUCGGGUGCCAA	11.4

Series 4
Target: Interferon regulatory factor 5, full length, phosphomimetic (IRF5, Homo sapiens, UniProt Q13568-2, residues 1-514, S451D/S453D/S456D/S462D)
Method: protein-binding microarray
Form: double-stranded DNA, one strand shown
Medium: in vitro
Tested at: 940 nM top
Notes: 60-bp whole probe
With: salmon DNA 0.4 mg/ml
Baseline: random background probes
Reading: higher = stronger binding
Shared flanks, not repeated: GCCTAGCAC … GTCTTGATTCGCTTGACGCTGCTG
Strand	fitted relative affinity [z-score]
TCAGGACTGGGGTATCGGTTAGTGCTA	2.84
TTAGATTTCGGGGATCGATTAGTGCTA	1.18
TTAGGTTTCGGTCTCGGGTAGTGCTAG	13.8
TTAGGTATCAGTCTCGATTAGTGCTAG	5.19
TTAGATTTCGGGTATCGCTTAGTGCTA	2.18
TCAGCCCTCCCTGTGGGACTGTGCTAG	-0.614
GACTGACTGGACACTGGGGACGTGCTA	-0.397
GGCTTTGACTCTTTCTGTCAGTGCTAG	0.24
CTAGGACTGGGGACTGGGTTAGTGCTA	-0.367
TTAGATTTCGGGACTGGCTTAGTGCTA	0.332
GACGGTTTCCTTTTACTGACGTGCTAG	2.31
TTAGGTTACGGTTCCGGTTAGTGCTAG	1.58
TTAGGTATCGGGCATCGGTTAGTGCTA	4.37
TTAGAACTGGGTACTGGATTAGTGCTA	-0.337
TTAGGTATCGTGACTGGGTTAGTGCTA	1.47
GACGGACTGCTTCTCTTGACGTGCTAG	-0.0341
TTAGGACTCCTTATCCTTTAGTGCTAG	-0.00664
TTTGGCTTTCCTTTATGTCCGTGCTAG	0.846
GACGATCTCAGTTTCGCGACGTGCTAG	1.55
TTAGGTATCGGGTTTCCGTTAGTGCTA	6.13
TTAGGACTGGAAACTGGGTTAGTGCTA	-0.544
TTACGTATCGGACTGGGTTAGTGCTAG	2.11
TCAGTTTCGTATCTTCATACTGTGCTA	8.94
GAGGGTATCGGTATCGGGACGTGCTAG	6.26
TCAAATAATCTTTTCACACTGTGCTAG	0.645

For quick reference, copied from above (series 1):
Strand	fluorescence intensity [a.u.]
CCTAACTACTATATTCACGGGAAATAGCTTCGTACAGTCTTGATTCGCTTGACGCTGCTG	507
GAATATTGGTTGGCTGATGTTAGTAATTACTACTAGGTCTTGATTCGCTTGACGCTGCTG	513
GAATTCTATATACATGATGTATCGGAAGCTGTATAGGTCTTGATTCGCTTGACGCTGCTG	543
CTAATTAGATTCCACCTGACTAATTGCATTACATTCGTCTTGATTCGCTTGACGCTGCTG	1530
GAAAATTTTGATTACCATCAGCAAATGGATTTTTAGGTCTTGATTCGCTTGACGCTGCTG	530
GAAATAAAAGACCCTCACCTGTGTCACTAAATGTAGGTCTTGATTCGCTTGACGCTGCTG	553
